# Measured values collected from several papers.
# A part holds a random share of what one study measured.

# Set 1
# Target: Prothrombin, mature alpha-thrombin (F2, Homo sapiens, UniProt P00734)
# Method: aptamer microarray, sandwich
# Form: DNA with 2'F-ANA
# Matrix: in vitro
# Tested at: 200 nM
# Notes: whole 15-mer aptamer, many near background
# Added: Cy3 exosite-II aptamer, 400 nM
# Direction: higher = stronger binding
Oligonucleotide,mean fluorescence intensity
GGTTGGTGTGGTTGG (2'F-ANA at 1 4 5 8 15),60.2 a.u.
GGTTGGTGTGGTTGG (2'F-ANA at 3 6 7 8 10 12 13 14 15),379 a.u.
GGTTGGTGTGGTTGG (2'F-ANA at 1 2 5 6 8 9 10 13 15),48.1 a.u.

# Set 2
# Target: Interferon regulatory factor 5, full length, phosphomimetic (IRF5, Homo sapiens, UniProt Q13568-2, residues 1-514, K96S/S451D/S453D/S456D/S462D)
# Method: protein-binding microarray
# Form: double-stranded DNA, one strand shown
# Matrix: in vitro
# Tested at: 250 nM
# Notes: 60-bp whole probe
# Added: salmon DNA 0.4 mg/ml
# Relative to: random background probes
# Direction: higher = stronger binding
Oligonucleotide,log fluorescence [z-score]
GCCTAGCACTTAGGTTTCGACTTTCAGTTAGTGCTAGTCTTGATTCGCTTGACGCTGCTG,8.3
GCCTAGCACTATTTTGGAAACTCACAACAGTGCTAGGTCTTGATTCGCTTGACGCTGCTG,0.434
GCCTAGCACCATATTCTCTTCTTGCATCTGTGCTAGGTCTTGATTCGCTTGACGCTGCTG,0.799

# Single results of other studies
# SALL4 full length isoform A: Sal-like protein 4, full length isoform A (SALL4, Homo sapiens, UniProt Q9UJQ4, residues 1-1053)
# Sequence of UniProt Q9UJQ4 (whole entry, looked up): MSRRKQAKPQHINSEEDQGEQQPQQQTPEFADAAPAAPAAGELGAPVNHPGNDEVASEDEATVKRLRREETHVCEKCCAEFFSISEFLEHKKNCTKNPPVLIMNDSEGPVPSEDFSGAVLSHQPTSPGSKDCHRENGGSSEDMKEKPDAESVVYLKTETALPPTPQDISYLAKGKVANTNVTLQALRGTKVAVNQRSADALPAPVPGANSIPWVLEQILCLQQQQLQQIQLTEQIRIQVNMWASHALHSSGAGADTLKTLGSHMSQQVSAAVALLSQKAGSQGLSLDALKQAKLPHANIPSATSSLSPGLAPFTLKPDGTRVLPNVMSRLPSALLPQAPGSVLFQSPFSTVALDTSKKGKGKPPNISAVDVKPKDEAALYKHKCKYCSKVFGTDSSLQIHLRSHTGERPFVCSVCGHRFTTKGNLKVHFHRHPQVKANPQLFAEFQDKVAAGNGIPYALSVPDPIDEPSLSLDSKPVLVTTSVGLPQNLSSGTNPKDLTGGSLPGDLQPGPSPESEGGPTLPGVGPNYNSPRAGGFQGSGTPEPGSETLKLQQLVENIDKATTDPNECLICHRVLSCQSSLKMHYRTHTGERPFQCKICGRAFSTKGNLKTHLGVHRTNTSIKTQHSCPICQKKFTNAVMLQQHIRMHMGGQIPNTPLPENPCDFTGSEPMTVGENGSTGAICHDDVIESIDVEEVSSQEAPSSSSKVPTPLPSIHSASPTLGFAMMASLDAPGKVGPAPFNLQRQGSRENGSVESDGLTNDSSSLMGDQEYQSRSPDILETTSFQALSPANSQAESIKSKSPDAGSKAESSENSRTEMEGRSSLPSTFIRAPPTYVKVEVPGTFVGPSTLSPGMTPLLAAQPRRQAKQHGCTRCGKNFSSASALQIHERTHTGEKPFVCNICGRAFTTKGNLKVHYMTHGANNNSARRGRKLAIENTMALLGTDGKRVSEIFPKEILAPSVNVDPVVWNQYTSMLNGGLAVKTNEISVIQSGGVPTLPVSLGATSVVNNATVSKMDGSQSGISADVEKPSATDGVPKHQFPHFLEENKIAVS
Molecule,target,test,system,setting,scale,quantity,value
ACTCGGAT,SALL4 full length isoform A,universal PBM,"double-stranded DNA, one strand shown, in vitro","600 nM, 8-mer, flanks averaged, mean of replicates",higher = stronger binding,E-score,0.0804
"PhoQ, residues 284 288 289 292 302 303 TNSAEL","PhoP, residues 12 14 15 18 19 SHWTV (Escherichia coli, UniProt P23836)","Sort-seq, item: YFP reporter",E. coli,"PhoQ-PhoP variant library, added: 10 µM Mg2+","relative to: high Mg2+ state, higher = stronger signaling",fold induction,2.13
AGAATACT,SALL4 full length isoform A,universal PBM,"double-stranded DNA, one strand shown, in vitro","600 nM, 8-mer, flanks averaged, mean of replicates",higher = stronger binding,E-score,0.222
ACTTATTC,SALL4 full length isoform A,universal PBM,"double-stranded DNA, one strand shown, in vitro","600 nM, 8-mer, flanks averaged, mean of replicates",higher = stronger binding,E-score,0.236

# For quick reference, copied from above (set 2):
Oligonucleotide,log fluorescence [z-score]
GCCTAGCACTATTTTGGAAACTCACAACAGTGCTAGGTCTTGATTCGCTTGACGCTGCTG,0.434
